Assay results collected from several papers.
Lines come from different studies, so protocols differ. Numbers after ± are the reported error.
serine/threonine phosphatase Stp1: serine/threonine phosphatase Stp1 (Staphylococcus aureus, UniProt A0A0H2XF73)
UCHL1: Ubiquitin carboxyl-terminal hydrolase isozyme L1 (UCHL1, Homo sapiens, UniProt P09936)
UniProt P09936, sequence (whole entry, looked up): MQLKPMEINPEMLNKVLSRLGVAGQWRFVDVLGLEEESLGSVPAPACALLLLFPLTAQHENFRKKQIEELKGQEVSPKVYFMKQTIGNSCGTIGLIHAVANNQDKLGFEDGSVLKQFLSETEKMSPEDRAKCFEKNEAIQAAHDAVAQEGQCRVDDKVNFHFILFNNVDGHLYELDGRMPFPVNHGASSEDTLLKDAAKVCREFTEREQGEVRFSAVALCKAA
Histone acetyltransferase RTT109 with Vps75: Histone acetyltransferase RTT109, with Vps75 (Saccharomyces cerevisiae, UniProt Q07794)
UniProt Q07794, sequence (whole entry, looked up): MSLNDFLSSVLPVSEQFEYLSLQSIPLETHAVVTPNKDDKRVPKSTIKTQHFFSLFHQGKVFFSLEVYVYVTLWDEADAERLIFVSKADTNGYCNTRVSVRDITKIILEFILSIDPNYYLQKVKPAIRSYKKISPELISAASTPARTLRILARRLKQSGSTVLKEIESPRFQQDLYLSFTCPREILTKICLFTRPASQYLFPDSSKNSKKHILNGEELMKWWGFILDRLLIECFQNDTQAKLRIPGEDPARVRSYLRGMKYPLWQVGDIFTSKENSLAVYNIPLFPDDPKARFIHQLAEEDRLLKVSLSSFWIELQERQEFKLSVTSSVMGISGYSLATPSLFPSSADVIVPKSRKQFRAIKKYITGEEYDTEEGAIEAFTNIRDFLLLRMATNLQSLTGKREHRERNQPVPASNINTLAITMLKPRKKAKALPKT
BRD4 BD2: Bromodomain-containing protein 4, BD2 (BRD4, Homo sapiens, UniProt O60885)
UniProt P09619, sequence (whole entry, looked up): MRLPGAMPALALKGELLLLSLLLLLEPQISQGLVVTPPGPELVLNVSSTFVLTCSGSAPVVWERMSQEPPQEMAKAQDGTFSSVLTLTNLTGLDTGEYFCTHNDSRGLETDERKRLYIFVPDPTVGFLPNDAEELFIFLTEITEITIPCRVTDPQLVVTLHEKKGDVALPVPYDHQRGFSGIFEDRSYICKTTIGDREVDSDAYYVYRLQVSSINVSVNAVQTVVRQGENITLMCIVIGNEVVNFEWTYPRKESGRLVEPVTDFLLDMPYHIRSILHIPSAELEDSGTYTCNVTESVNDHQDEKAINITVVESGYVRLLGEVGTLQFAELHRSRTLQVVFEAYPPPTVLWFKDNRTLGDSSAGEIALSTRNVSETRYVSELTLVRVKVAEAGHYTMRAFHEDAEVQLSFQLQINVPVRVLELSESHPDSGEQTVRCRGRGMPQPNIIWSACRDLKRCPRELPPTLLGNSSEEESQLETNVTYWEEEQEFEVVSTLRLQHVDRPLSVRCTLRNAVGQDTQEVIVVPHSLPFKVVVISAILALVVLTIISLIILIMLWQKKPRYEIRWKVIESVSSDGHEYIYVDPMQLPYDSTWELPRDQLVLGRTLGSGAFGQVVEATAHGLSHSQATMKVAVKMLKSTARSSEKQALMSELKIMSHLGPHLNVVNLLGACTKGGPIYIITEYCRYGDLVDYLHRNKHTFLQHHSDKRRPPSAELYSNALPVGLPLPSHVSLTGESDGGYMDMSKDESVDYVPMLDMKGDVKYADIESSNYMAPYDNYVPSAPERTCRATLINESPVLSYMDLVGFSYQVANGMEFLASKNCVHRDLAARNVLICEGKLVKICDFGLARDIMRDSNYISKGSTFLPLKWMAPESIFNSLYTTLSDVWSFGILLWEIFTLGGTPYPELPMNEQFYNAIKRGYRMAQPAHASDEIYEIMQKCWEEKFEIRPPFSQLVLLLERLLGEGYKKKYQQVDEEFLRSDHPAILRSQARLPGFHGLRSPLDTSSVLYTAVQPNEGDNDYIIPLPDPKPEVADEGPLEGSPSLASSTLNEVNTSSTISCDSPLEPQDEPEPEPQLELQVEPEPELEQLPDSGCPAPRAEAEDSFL
UniProt P35222, sequence (whole entry, looked up): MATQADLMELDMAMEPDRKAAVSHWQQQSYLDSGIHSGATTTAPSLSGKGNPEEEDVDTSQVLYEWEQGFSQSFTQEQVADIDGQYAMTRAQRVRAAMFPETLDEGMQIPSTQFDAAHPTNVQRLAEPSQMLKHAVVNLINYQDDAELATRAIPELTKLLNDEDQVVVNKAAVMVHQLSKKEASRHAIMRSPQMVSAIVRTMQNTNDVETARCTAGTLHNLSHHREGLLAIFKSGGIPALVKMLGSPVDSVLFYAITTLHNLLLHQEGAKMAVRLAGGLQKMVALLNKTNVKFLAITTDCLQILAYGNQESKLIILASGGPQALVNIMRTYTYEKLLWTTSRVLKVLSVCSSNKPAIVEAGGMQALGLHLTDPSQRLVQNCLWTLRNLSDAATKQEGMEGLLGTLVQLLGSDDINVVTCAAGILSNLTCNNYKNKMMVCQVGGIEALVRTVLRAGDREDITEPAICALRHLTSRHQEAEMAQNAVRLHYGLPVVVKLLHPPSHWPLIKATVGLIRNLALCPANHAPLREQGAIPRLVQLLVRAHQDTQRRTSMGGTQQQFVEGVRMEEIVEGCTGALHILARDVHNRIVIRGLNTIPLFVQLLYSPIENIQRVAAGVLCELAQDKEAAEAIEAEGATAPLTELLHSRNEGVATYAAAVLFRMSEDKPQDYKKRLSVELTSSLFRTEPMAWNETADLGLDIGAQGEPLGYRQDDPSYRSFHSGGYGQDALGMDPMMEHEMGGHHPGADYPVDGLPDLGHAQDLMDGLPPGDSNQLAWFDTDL
UniProt Q5S007, sequence (whole entry, unmodified, looked up): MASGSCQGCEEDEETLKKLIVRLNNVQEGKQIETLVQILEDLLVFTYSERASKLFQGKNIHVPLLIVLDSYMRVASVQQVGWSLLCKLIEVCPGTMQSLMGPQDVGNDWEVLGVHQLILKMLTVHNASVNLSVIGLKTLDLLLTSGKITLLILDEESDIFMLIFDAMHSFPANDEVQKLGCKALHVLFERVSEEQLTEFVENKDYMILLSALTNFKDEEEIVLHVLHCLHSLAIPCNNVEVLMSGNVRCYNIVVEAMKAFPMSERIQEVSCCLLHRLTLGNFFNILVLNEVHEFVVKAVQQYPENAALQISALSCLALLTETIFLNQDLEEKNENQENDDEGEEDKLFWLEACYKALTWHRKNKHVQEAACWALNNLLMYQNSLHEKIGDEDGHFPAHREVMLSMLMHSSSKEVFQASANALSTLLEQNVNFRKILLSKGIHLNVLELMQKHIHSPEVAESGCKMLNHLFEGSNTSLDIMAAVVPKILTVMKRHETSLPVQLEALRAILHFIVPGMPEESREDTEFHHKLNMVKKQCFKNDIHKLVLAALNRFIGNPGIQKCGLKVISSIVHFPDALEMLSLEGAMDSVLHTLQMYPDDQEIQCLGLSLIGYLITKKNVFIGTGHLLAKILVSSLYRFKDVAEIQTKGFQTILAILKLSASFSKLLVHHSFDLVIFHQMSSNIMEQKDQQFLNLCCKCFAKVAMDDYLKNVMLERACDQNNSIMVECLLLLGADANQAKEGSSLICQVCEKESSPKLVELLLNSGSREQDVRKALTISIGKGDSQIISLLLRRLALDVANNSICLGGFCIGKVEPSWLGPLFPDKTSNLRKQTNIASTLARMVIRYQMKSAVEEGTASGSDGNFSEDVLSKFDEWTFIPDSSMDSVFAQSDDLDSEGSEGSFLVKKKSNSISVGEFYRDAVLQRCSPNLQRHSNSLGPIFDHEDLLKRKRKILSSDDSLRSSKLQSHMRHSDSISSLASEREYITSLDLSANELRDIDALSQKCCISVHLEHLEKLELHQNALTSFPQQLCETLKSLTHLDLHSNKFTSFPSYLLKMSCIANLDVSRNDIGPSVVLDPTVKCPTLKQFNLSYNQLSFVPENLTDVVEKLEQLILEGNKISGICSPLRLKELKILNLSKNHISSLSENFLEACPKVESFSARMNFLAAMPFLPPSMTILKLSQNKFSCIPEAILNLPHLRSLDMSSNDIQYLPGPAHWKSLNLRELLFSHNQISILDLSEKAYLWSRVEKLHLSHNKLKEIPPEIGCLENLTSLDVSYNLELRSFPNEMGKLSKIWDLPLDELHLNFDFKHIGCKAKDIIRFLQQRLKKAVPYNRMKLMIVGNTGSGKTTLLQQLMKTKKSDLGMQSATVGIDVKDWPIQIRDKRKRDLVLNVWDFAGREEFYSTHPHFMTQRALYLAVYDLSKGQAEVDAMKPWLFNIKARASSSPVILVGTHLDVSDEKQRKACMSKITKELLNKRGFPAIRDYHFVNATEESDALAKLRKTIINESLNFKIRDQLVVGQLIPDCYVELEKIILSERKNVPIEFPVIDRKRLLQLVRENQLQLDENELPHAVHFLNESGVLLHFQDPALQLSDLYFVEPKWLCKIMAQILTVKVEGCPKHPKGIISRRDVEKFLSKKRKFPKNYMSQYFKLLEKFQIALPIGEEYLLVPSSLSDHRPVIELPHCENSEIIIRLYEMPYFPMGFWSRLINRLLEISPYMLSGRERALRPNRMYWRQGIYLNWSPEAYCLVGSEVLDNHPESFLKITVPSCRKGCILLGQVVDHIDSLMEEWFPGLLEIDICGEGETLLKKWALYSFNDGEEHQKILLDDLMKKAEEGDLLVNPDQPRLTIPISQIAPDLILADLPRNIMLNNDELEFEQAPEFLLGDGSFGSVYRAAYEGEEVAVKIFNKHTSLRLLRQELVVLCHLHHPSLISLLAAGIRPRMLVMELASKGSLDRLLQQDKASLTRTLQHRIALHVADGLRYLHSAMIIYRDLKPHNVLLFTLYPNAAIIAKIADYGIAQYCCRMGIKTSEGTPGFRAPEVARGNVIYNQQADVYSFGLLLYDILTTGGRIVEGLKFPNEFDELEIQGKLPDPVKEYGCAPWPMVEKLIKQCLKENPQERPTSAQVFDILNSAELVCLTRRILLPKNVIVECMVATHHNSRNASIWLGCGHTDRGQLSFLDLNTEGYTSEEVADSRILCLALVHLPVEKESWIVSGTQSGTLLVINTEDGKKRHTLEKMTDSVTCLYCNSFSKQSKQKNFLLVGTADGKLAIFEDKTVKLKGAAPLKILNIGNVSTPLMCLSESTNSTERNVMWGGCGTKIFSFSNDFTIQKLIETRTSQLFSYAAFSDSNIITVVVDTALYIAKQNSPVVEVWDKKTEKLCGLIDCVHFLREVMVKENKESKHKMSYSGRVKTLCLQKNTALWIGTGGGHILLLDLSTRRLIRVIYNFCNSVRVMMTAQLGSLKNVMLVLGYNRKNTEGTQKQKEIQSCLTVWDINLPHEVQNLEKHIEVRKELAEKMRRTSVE

With C[C@@H]1O[C@@H](Oc2c(-c3ccc(O)c(O)c3)oc3cc(O)cc(O)c3c2=O)[C@H](O)[C@H](O)[C@H]1O the IC50 was greater than 223 µM (serine/threonine phosphatase Stp1; phosphatase activity, inhibitor).
COc1cc(O)c(CC=C(C)C)c2c1C(=O)CC(c1ccc(O)cc1)O2 (centres unmarked) has an IC50 of 0.2 ± 0.1 µM (Cytochrome P450 2C8 (CYP2C8, Homo sapiens, UniProt P10632); enzyme activity, inhibitor; human liver microsomes; pH 7.4, added: amodiaquine).
N#CC(=Cc1ccc(F)c([N+](=O)[O-])c1)C(=O)Nc1ccc(F)cc1 has an IC50 of greater than 200 µM (UCHL1; inhibitor, ubiquitin-rhodamine cleavage; 2 h preincubation).
With Fc1cccc(Nc2nc(-c3ccccc3)no2)c1 the IC50 was greater than 125 µM (Histone acetyltransferase RTT109 with Vps75; enzyme activity, inhibitor, HTS, CPM-based, dose response).
Cc1cnc(-c2ccc(-c3ccc(NC(=O)Nc4c(F)cc(F)cc4F)cc3F)c3c2C(=O)NC3)[nH]1 has an IC50 of 0.0258 µM (Platelet-derived growth factor receptor alpha (PDGFRA, Homo sapiens, UniProt P16234); enzyme activity, inhibitor, mobility shift; added: ATP 1 mM).
With CCn1c(-c2nc3cc(C(=O)N4CCC[C@@H](N)C4)cc(OC)c3n2C)cc2cccnc21 the IC50 was greater than 39.8 µM (Substance-P receptor (TACR1, Homo sapiens, UniProt P25103); intracellular calcium, antagonist, luminescence).
The IC50 of C=CC(=O)Nc1cccc(Oc2nc(Nc3ccc(N4CCN(C)CC4)cc3)nc3ccoc23)c1 is reported as 0.00156 µM (Tyrosine-protein kinase BTK (BTK, Homo sapiens, UniProt Q06187); concentration not given).
CCCCCCCCCCCCNC(=S)NCCCC[C@H](NC(=O)OCc1ccccc1)C(=O)N[C@@H](Cc1c[nH]c2ccccc12)C(=O)N[C@@H](CCCCNC(=N)N)C(N)=O gave an IC50 of 2.4 ± 0.6 µM (NAD-dependent protein deacetylase sirtuin-2 (SIRT2, Homo sapiens, UniProt Q8IXJ6); enzyme activity, inhibitor).
CN(C)C(=O)c1cc2cnc(Nc3cncc(-c4ccc5c(=O)cc(N6CCOCC6)oc5c4)c3)nc2n1C1CCCC1 gave an IC50 of greater than 10 µM (BRD4 BD2; inhibitor).
Cc1cc([C@@H](C)Nc2ccccc2C(=O)O)c2nc(N3CCCCC3)cc(=O)n2c1 gave an IC50 of greater than 10 µM (Phosphatidylinositol 4,5-bisphosphate 3-kinase catalytic subunit alpha isoform, with p85 alpha (PIK3CA, Homo sapiens, UniProt P42336); ADP-Glo; added: ATP 10 µM).
O=C(O)/C=C/c1ccc(O)cc1 has an IC50 of 559 ± 41.7 µM (Angiotensin-converting enzyme (ACE, Oryctolagus cuniculus, UniProt P12822); enzyme activity, inhibitor; 2 h, pH 8.3, 37 °C, added: hippuryl-histidyl-leucine).
Sc1ncnc2nc[nH]c12 gave an IC50 of greater than 125 µM (Histone acetyltransferase RTT109 with Vps75; enzyme activity, inhibitor, HTS, CPM-based, dose response).
CCOC(=O)c1c(NC(=O)CNC(C)C)sc2c1CCCCC2 gave an IC50 of 26.2 µM (Glycogen synthase kinase-3 beta, with Nav1.6 (GSK3B, Homo sapiens, UniProt P49841); Nav1.6-GSK3β assembly, inhibitor, split-luciferase complementation; HEK293 cells (transfected)).
Cc1ccc(C(=O)Nc2ccc(S(=O)(=O)O)c3cc(S(=O)(=O)O)cc(S(=O)(=O)O)c23)cc1NC(=O)c1cccc(NC(=O)Nc2cccc(C(=O)Nc3cc(C(=O)Nc4ccc(S(=O)(=O)O)c5cc(S(=O)(=O)O)cc(S(=O)(=O)O)c45)ccc3C)c2)c1 has an IC50 of 7 µM (Uncharacterized protein (Trypanosoma brucei, UniProt Q38AT7)).
For O=S1(=O)C=C(Oc2ccc3ccccc3c2)c2ccccc21, the IC50 was greater than 125 µM (Histone acetyltransferase RTT109 with Vps75; enzyme activity, inhibitor, HTS, CPM-based, dose response).
With COc1ccc2c(=O)[nH]c3c(nnn3Cc3ccc(C)cc3)c2c1 the IC50 was greater than 10 µM (Protein mono-ADP-ribosyltransferase PARP3 (PARP3, Homo sapiens, UniProt Q9Y6F1)).
The IC50 of O=C1CC(N2CCN(c3ncccn3)CC2)C(=O)N1c1cc(Cl)cc(Cl)c1 (centres unmarked) is reported as greater than 125 µM (Histone acetyltransferase RTT109 with Vps75; enzyme activity, inhibitor, HTS, CPM-based, dose response).
CC[C@H](C)[C@H](N)C(=O)O has an IC50 of 9.6 µM (ilvA (Escherichia coli, UniProt P04968); enzyme activity, inhibitor).
C[C@@H]1O[C@H](CNC(=O)c2cc3ccccc3[nH]2)[C@@H](O)[C@H](O)[C@@H]1O has an IC50 of 3.57 ± 0.66 µM (fucose-binding lectin LecB (Pseudomonas aeruginosa, UniProt A0A0H2ZE85)).
With CC[C@@H]1[C@H](F)C(=O)N[C@@H]1COc1nccc2cc(C(N)=O)c(OC)cc12 the IC50 was 1.2 µM (Serine/threonine-protein kinase tousled-like 2 (TLK2, Homo sapiens, UniProt Q86UE8); ATP-site probe binding, ActivX profiling; THP-1 cell lysate; Lys2 site).
The IC50 of O=C(Nc1cccnn1)N1CCC(=Cc2cccc(Oc3ccc(C(F)(F)F)cn3)c2)CC1 is reported as 0.0027 µM (Fatty-acid amide hydrolase 1 (Faah, Rattus norvegicus, UniProt P97612); enzyme activity, inhibitor; rat brain membranes; 30 min preincubation).
The IC50 of CN(C)C(=O)c1cc2cnc(Nc3ccc(-c4cccc5c(=O)cc(N6CCOCC6)oc45)c(F)c3)nc2n1C1CCCC1 is reported as 0.0693 µM (BRD4 BD2; inhibitor).
For O=S1(=O)C=C(Sc2nc3ccccc3o2)c2ccccc21, the IC50 was greater than 125 µM (Histone acetyltransferase RTT109 with Vps75; enzyme activity, inhibitor, HTS, CPM-based, dose response).
COc1cc([C@@H]2c3cc4c(cc3[C@H](O)[C@H]3COC(=O)[C@H]23)OCO4)cc(OC)c1OC has an IC50 of greater than 241 µM (serine/threonine phosphatase Stp1; enzyme activity, inhibitor; added: pNPP).
COc1ccc(-c2cncc(N[C@@H](C)c3cccc(NC(=O)c4cncc(C)c4)c3)n2)cc1OC has an IC50 of 0.014 µM (Platelet-derived growth factor receptor beta (PDGFRB, Homo sapiens, UniProt P09619)).
Cc1ccc(S(=O)(=O)C(CNC(=O)COc2ccccc2)c2cccs2)cc1 (centres unmarked) gave an IC50 of 5.41 µM (Catenin beta-1, with BCL9 HD2 (CTNNB1, Homo sapiens, UniProt P35222); BCL9 binding, inhibitor, AlphaScreen).
CC1=CC(=O)C(C(C)C)=CC1=O gave an IC50 of 0.125 µM (Leucine-rich repeat serine/threonine-protein kinase 2 (LRRK2, Homo sapiens, UniProt Q5S007, G2019S); kinase activity, radiometric; added: MBP substrate).
CN(C)C(=O)c1cc2cnc(Nc3ccc4c(=O)cc(N5CCNCC5)oc4c3)nc2n1C1CCCC1 gave an IC50 of 5.45 µM (BRD4 BD2; inhibitor).
Sc1nnc(-c2ccncc2)o1 gave an IC50 of greater than 125 µM (Histone acetyltransferase RTT109 with Vps75; enzyme activity, inhibitor, HTS, CPM-based, dose response).
For CN(C)C(=O)c1cc2cnc(Nc3ccc(-c4cccc5c(=O)cc(N6CCOCC6)oc45)cn3)nc2n1C1CCCC1, the IC50 was 1.3 µM (Bromodomain-containing protein 4, BD1 (BRD4, Homo sapiens, UniProt O60885); inhibitor).
For CC(=O)c1cnc2ccc(-c3cc(Cl)c(O)c(Cl)c3)nc2c1N[C@H]1CC[C@H](CN(C)C)CC1, the IC50 was 0.07 µM (Receptor-like protein kinase FERONIA (FER, Arabidopsis thaliana, UniProt Q9SCZ4); kinase activity, inhibitor, ADP-Glo; 60 min, added: 50 µM ATP).
CN1CCN(c2ccc(Nc3ncc4cc(C#N)c(=O)n(C5CCCC5)c4n3)cc2)CC1 gave an IC50 of 4.91 µM (Serine/threonine-protein kinase 25 (STK25, Homo sapiens, UniProt O00506)).
For Cc1ccc2[nH]nc(-c3nnc(Nc4ccc(F)cc4Cl)s3)c2c1, the IC50 was 6.82 ± 0.87 µM (thymidine phosphorylase; enzyme activity, inhibitor, spectrophotometric; pH 7.5, 25 °C).
N=C(N)c1ccc(OCCCOc2ccc(C(=N)N)cc2)cc1 has an IC50 of 7 ± 1 µM (Serine protease 1 (PRSS1, Bos taurus, UniProt P00760); enzyme activity, inhibitor).
With Cn1c(SC2=CS(=O)(=O)c3ccccc32)nc2ccccc21 the IC50 was greater than 125 µM (Histone acetyltransferase RTT109 with Vps75; enzyme activity, inhibitor, HTS, CPM-based, dose response).
The IC50 of COc1ccc(NC(=O)C(C#N)=Cc2cccc(O)c2)cc1Cl is reported as 160 µM (UCHL1; inhibitor, ubiquitin-rhodamine cleavage; 2 h preincubation).
With CNc1nc(C)nc(N[C@H]2CCC[C@@H](C(=O)NCc3ccc(C#N)cc3C(F)(F)F)C2)n1 the IC50 was 0.003 µM (soluble epoxide hydrolase (Equus caballus, UniProt F7C407)).
The IC50 of O=C1CC(Nc2ccccc2)C(=O)N1c1ccc(Br)cc1 (centres unmarked) is reported as greater than 125 µM (Histone acetyltransferase RTT109 with Vps75; enzyme activity, inhibitor, HTS, CPM-based, dose response).

Excerpt of the above:
CC[C@H](C)[C@H](N)C(=O)O has an IC50 of 9.6 µM (ilvA (Escherichia coli, UniProt P04968); enzyme activity, inhibitor).
COc1cc(O)c(CC=C(C)C)c2c1C(=O)CC(c1ccc(O)cc1)O2 (centres unmarked) has an IC50 of 0.2 ± 0.1 µM (Cytochrome P450 2C8 (CYP2C8, Homo sapiens, UniProt P10632); enzyme activity, inhibitor; human liver microsomes; pH 7.4, added: amodiaquine).
